Results collected from several papers.
Every numbered part comes from another study and shows a few of its results, in no order.
Sequence of UniProt P07949 (whole entry, looked up): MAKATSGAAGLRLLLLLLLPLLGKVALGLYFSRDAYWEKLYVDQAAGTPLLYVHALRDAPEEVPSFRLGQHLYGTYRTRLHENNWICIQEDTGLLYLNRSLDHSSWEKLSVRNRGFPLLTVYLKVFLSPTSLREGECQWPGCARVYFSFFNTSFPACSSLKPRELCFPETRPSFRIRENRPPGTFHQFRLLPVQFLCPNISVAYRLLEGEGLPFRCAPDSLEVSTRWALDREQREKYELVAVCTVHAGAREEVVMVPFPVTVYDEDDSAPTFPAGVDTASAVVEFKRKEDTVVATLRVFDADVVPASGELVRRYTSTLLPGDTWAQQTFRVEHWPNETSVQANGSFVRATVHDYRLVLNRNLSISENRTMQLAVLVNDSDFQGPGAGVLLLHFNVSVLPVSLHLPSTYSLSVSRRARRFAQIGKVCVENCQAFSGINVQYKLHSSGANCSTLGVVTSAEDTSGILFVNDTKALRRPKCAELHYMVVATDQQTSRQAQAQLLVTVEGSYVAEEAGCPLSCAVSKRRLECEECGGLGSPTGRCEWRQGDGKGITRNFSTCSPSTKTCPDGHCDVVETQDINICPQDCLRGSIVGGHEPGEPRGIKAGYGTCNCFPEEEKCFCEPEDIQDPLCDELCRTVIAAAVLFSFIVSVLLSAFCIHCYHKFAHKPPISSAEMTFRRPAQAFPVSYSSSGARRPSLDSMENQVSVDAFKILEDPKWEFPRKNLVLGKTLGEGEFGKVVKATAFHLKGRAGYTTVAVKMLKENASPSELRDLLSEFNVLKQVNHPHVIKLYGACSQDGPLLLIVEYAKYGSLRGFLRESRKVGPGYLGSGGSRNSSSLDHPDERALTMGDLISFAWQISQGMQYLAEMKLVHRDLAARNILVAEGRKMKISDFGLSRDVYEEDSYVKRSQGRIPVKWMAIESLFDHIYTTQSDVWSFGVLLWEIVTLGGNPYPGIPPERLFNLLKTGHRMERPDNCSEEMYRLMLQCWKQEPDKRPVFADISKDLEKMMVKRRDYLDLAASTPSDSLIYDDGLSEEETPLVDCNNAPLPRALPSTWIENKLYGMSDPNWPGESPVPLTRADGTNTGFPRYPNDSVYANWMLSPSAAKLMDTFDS
Sequence of UniProt P08069 (whole entry, looked up): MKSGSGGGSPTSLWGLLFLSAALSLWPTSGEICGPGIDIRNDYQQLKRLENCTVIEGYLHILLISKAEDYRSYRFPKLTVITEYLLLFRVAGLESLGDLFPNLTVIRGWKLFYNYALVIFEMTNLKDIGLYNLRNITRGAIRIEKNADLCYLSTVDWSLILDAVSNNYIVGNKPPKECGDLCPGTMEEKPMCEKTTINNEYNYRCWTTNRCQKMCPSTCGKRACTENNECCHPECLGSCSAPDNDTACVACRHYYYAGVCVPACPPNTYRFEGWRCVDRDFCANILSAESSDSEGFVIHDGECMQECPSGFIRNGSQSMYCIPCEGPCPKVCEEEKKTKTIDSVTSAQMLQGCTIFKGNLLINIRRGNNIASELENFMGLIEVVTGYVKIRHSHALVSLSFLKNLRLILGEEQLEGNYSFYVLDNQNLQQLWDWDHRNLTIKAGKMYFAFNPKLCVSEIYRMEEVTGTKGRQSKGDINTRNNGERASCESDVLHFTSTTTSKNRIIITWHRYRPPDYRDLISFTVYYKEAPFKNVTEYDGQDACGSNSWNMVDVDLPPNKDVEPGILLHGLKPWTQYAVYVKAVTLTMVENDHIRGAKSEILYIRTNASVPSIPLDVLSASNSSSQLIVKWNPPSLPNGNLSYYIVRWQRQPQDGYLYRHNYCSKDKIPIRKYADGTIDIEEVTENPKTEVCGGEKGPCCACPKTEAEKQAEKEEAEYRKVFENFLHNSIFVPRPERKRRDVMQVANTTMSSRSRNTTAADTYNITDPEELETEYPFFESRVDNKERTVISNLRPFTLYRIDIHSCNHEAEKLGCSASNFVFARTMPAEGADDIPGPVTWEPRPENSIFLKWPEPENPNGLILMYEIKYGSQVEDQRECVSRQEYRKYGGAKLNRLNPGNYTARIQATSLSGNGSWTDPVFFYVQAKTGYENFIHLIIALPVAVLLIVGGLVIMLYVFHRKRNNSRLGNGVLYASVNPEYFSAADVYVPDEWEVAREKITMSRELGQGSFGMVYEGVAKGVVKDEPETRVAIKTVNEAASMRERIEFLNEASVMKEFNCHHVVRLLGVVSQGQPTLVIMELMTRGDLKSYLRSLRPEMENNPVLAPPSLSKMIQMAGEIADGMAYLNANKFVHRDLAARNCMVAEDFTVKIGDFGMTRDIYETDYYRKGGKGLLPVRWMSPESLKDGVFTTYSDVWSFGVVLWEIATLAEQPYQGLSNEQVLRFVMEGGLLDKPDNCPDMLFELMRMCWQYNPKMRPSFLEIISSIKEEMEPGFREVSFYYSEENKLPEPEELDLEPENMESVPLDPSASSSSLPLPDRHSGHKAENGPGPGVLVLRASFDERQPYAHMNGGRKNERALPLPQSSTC
Sequence of UniProt P68400 (whole entry, looked up): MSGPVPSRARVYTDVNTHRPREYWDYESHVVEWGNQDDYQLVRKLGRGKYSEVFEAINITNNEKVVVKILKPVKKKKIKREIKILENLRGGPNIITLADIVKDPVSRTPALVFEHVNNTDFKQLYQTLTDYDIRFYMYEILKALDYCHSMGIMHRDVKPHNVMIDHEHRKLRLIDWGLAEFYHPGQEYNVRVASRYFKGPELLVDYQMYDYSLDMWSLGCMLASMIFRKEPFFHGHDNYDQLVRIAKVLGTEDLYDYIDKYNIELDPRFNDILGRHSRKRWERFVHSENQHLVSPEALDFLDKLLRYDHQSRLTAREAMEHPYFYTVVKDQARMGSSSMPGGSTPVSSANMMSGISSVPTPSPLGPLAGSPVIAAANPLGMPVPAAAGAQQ
Sequence of UniProt P42336 (whole entry, unmodified, looked up): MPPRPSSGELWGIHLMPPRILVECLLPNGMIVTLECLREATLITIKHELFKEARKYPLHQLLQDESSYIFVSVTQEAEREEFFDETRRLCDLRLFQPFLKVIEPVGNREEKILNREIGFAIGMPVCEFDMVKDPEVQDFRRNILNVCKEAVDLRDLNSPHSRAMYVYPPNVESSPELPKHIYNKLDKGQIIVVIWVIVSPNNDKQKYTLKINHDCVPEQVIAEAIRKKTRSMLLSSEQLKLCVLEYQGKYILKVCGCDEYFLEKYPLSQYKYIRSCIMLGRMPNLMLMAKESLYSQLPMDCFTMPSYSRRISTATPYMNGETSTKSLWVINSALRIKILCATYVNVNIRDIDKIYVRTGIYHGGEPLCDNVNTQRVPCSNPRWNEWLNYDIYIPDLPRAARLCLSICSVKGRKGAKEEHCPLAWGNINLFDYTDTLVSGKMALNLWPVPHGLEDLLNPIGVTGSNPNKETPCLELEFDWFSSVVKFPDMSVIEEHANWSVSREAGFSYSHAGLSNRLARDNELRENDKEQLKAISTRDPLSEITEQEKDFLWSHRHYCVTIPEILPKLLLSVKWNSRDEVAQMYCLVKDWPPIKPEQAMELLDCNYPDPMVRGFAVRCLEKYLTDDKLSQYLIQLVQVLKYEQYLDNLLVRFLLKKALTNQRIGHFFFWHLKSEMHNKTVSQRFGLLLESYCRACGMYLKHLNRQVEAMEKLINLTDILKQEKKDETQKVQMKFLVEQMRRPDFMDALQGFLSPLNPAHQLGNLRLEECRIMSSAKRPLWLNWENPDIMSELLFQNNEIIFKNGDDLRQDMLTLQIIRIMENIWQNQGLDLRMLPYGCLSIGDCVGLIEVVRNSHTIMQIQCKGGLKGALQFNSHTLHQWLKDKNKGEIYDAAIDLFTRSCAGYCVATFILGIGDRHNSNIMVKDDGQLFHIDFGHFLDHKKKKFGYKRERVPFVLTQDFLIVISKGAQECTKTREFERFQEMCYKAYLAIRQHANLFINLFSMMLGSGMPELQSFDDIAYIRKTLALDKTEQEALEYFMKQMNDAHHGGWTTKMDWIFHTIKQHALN
Sequence of UniProt P20794 (whole entry, looked up): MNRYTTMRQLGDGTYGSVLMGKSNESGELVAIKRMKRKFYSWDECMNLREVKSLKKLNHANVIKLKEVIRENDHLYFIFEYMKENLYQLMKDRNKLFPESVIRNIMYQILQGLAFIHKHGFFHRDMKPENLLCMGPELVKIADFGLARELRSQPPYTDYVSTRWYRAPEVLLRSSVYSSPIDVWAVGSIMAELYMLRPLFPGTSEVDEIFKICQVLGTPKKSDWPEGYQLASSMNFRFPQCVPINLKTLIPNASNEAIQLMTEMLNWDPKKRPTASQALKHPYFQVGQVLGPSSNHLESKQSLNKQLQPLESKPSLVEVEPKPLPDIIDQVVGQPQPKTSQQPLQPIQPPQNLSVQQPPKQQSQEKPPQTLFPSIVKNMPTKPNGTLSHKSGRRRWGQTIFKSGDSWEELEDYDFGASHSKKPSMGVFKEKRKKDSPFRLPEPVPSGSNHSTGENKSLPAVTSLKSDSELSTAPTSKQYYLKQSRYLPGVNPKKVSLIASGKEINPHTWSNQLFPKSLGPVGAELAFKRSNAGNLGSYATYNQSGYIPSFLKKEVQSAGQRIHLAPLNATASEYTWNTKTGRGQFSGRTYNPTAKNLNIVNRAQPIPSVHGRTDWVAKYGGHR

Set 1
SMILES: COc1cc(C(=O)N2CCC(N3CCN(C)CC3)CC2)ccc1Nc1ncc2c(n1)N(C)c1ccccc1C(=O)N2C
Method: KINOMEscan
Tested at: 10 µM
Direction: lower = stronger binding
target | binding (% of control) [%]
CTK | 100
ABL1(M351T)-phosphorylated | 94
TRKB | 100
TRKA | 69
BRK | 58
CDK4-cyclinD1 | 100
ERK1 | 100
TIE2 | 100

Set 2
Target: RAC-alpha serine/threonine-protein kinase (AKT1, Homo sapiens, UniProt P31749)
Sequence of UniProt P31749 (whole entry, looked up): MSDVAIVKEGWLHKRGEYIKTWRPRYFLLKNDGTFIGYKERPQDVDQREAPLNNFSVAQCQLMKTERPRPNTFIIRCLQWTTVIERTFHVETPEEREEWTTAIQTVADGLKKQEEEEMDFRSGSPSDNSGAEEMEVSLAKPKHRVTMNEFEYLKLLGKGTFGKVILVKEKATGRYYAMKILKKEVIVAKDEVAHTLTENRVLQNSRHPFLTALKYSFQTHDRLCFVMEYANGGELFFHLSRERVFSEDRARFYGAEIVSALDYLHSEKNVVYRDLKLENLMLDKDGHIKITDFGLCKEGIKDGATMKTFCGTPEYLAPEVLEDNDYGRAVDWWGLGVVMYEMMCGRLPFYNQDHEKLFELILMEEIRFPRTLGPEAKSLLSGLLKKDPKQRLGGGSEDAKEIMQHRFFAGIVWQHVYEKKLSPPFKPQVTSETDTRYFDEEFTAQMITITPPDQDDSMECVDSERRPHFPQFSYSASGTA
Effect on: enzyme activity
Mode: inhibitor
Tested at: 0.5 µM
Relative to: control
Compound | remaining activity
CC(=O)c1ccc(N2CCOCC2)cc1O | 103%
Fc1ccc(-c2nc3n(c2-c2ccncc2)CCS3)cc1 | 105%
COc1ccc(S(=O)(=O)N(CCO)c2ccccc2CN(C)CC=Cc2ccc(Cl)cc2)cc1 | 106%
Cc1cncc2cccc(S(=O)(=O)N3CCCN(C(=O)CN)C[C@@H]3C)c12 | 104%
CC(C)(C)n1nc(Cc2cccc3ccccc23)c2c(N)ncnc21 | 94.2%
N#CC(=C(N)Sc1ccc(N)cc1)c1ccccc1C(F)(F)F | 101%

Set 3
Structure (SMILES): CS(=O)(=O)c1cc(C2(NC(=O)c3cncc4c3cnn4-c3ccc(F)cc3)CC2)ccn1
Effect on: cell-free assay
Method: competition with immobilised ligand
Tested at: 1 µM
target | remaining binding [%]
IGF1R (Homo sapiens, UniProt P08069) | 100
MELK (Homo sapiens, UniProt Q14680) | 100
MAPKAPK2 (Homo sapiens, UniProt P49137) | 100
CSNK1E (Homo sapiens, UniProt P49674) | 84
PTK2 (Homo sapiens, UniProt Q05397) | 100
CSNK2A1 (Homo sapiens, UniProt P68400) | 64
TSSK3 (Homo sapiens, UniProt Q96PN8) | 100
MUSK (Homo sapiens, UniProt O15146) | 68
SLK (Homo sapiens, UniProt Q9H2G2) | 100
RET (Homo sapiens, UniProt P07949) | 100
MAK (Homo sapiens, UniProt P20794) | 100
PIK3CA (Homo sapiens, UniProt P42336, E545K) | 74

Further values, each from its own experiment
SMILES | species | dose | setting | measurement | value
CC(C)n1cnc(-c2ccc(F)cc2)c1-c1ncc(C(=O)Nc2ccc(N3CCN(C)CC3)cc2)[nH]1 | IPF patients | 60 mg once daily | adverse event | coronary arteriosclerosis incidence | 0%

A few entries again (set 2):
Compound | remaining activity
CC(=O)c1ccc(N2CCOCC2)cc1O | 103%
Fc1ccc(-c2nc3n(c2-c2ccncc2)CCS3)cc1 | 105%
COc1ccc(S(=O)(=O)N(CCO)c2ccccc2CN(C)CC=Cc2ccc(Cl)cc2)cc1 | 106%
